Measured values gathered from unrelated publications.
Protocols differ between the studies behind these lines.
Target: Serine/threonine-protein kinase 24 (STK24, Homo sapiens, UniProt Q9Y6E0)

Structure (SMILES) | test | system | setting | scale | endpoint | result
COc1cc(Nc2nccc(-c3cnn4nc(OC)ccc34)n2)cc(C(F)(F)F)c1 | binding, competition with immobilised ligand |  | 1 µM |  | remaining binding | 100%
Nc1ncc2c(n1)-c1c([nH]c3ccc(C4=CCOCC4)cc13)CCC2 | binding, competition with immobilised ligand |  | 1 µM |  | remaining binding | 100%
CN1CCN(Cc2ccc(-c3ccc(CO[C@H]4CCC[C@@H]4NC(=O)c4cc(-c5cnn(C)c5)cnc4N)cc3)cc2)CC1 | enzyme activity, inhibitor |  | 0.1 µM |  | inhibition | 13%
NC(=O)C[C@H]1CCc2sc3ncnc(O[C@H]4CC[C@H](N5CCOCC5)CC4)c3c21 | enzyme activity, inhibitor |  | 10 µM |  | inhibition | 3%
C=CC(=O)Nc1cccc(-c2cnc3[nH]cc(C(=O)NC(C)(C)C)c3n2)c1 | kinase activity |  | 0.1 µM |  | inhibition | 32%
COc1c(Cl)cccc1Nc1c(-c2ccncc2C#C[C@@]2(C)CCCN2C(=O)/C=C/CN(C)C)[nH]c2c1C(=O)NCC2 | binding, competition with immobilised ligand |  | 3 µM |  | remaining binding | 64%
CCN1CCN(Cc2ccc(C(=O)Nc3ccc(C)c(NCc4cnc5[nH]ccc5c4OC)c3)cc2C(F)(F)F)CC1 | binding, competition with immobilised ligand |  | 1 µM |  | remaining binding | 87%
Cc1cnc2nc1Nc1cccc(c1)COC/C=C/COCc1cc(ccc1OCCN1CCOCC1)N2 | cell-free assay |  | 0.1 µM |  | remaining signal | 100%
Cc1ccc(-c2c(/C=C(\C#N)C(=O)NC(C)C)n(CCCO)c3ncnc(N)c23)cc1 | cell-free assay, competition with immobilised ligand |  | 1 µM |  | remaining binding | 81%
Cc1cccc(O[C@H]2CCC[C@@H](C(C)CNCc3ccncc3)C2)c1 (relative stereo) | kinase activity, kinome panel screening |  | 10 µM |  | inhibition | -8%
O=C=[N][Ru-4]123([n]4c5ccc(O)cc5c5c6c(c7cc(F)c[n+]1c7c54)C(=O)NC6=O)[S+]1CC[S+]2CC[S+]3CC1 (stereo not shown) | enzyme activity |  | 100 nM, human enzyme, with: 10 µM ATP | reference: untreated | remaining activity | 43%
CNC(=O)C1CCN(c2cc(C)c(F)cc2NC(=O)c2ccc(-c3cc(O)ccc3C)c(C)c2)CC1 | binding, competition with immobilised ligand |  | 1 µM |  | remaining binding | 97%
CCn1cc(C(=O)O)c(=O)c2c(N)c(F)c(NC3CCCCC3)cc21 | kinase activity |  | 0.1 µM, with: ATP at Km |  | inhibition | -7.1%
O=C(Cc1ccc(OCc2ccccc2)cc1)NC1(C(=O)O)CCN(C(=O)c2ccc(-c3cccc(Cl)c3)cc2)CC1 | enzyme activity, inhibitor |  | 10 µM |  | activity vs control | 85%
COc1c(OCCCN2CCOCC2)ccc2c1N=C(NC(=O)c1cnc(N)nc1)N1CCN=C21 | kinase activity, inhibitor |  | 1 µM | reference: untreated control | remaining activity | 112%
Cc1ccc(C(=O)Nc2ccc(CN3CCN(C)CC3)c(C(F)(F)F)c2)cc1C#Cc1cnc2cccnn12 | target engagement, NanoBRET | human cells |  |  | Hill slope | 0.0667
